# Experimental data collected from several papers.
# Each line is one published result; not all experiments were run side by side. Values joined by “and” are separate records of one study, mostly repeats; a detail may differ. Numbers after ± are the reported error.
SMILES,cell line,test,test system,setting,how to read,measurement,value
COc1cc(/C=C/C=C2\SC(=S)NC2=O)ccc1O,HeLa,CellTiter-Glo,,"40 µM, 24 h, unit not given",reference: untreated,viability,0.866 and 0.911
O=C1NC2(CC2)COc2ncc(F)cc2[C@H]2COCCN2c2ccn3ncc1c3n2,CHL,chromosomal aberration test,,"10 µg/mL, 24 h, without S9",,polyploid cells,0%
NCc1ccc(NC(=O)c2cc(-c3ccccc3)n(-c3ccccc3)n2)cc1,HeLa,cell growth or viability,,,,CC50,38 µM
CN1CCCNC(=O)c2cccc(c2)C(=O)NCCCN(C)CCCNc2cccc3c2C(=O)c2cccc(c2C3=O)NCCC1,HeLa,"cell growth or viability, CCK-8",,"15 µM, 48 h",,viability,3.32%
CC(=O)N[C@H](C(=O)N[C@H](C(=O)N[C@@H](CCCNC(=N)N)C(=O)N[C@@H](CC(N)=O)C(=O)N[C@@H](CC(=O)O)C(=O)N[C@H](C(=O)N1CCC[C@@H]1C(=O)N1CCC[C@H]1C(=O)N[C@@H](CC(=O)O)C(=O)N[C@@H](CO)C(=O)N[C@@H](CC(C)C)C(=O)N[C@@H](CC(C)C)C(=O)N[C@H](C(=O)N[C@@H](Cc1ccccc1)C(N)=O)C(C)C)C(C)C)[C@@H](C)O)C(C)C,HEK-293T,subcellular fractionation LC-MS,nuclear fraction,"20 µM, 2 h",,concentration,not detected
Cc1cccc(N2CCC(C(=O)Nc3cccc(C(N)=O)c3)C2=O)c1 (stereo not drawn),HeLa,cell growth or viability,,,,CC50,> 50 µM
CC(C)C[C@@H]1NC(=O)[C@H](CO)NC(=O)[C@H](CC(=O)O)NC(=O)[C@@H]2CCCN2C(=O)[C@H]2CCCN2C(=O)[C@H](C(C)C)NC(=O)[C@H](CC(=O)O)NC(=O)[C@H](CC(N)=O)NC(=O)[C@H](CCCNC(=N)N)NC(=O)[C@H]([C@@H](C)O)NC(=O)[C@H](C(C)C)NC(=O)CCNC(=O)CCNC(=O)[C@H](Cc2ccccc2)NC(=O)[C@H](C(C)C)NC(=O)[C@H](CC(C)C)NC1=O,HEK-293T,subcellular fractionation LC-MS,nuclear fraction,"20 µM, 24 h",,peptide amount per protein,not detected
O=C(NC(c1ccccn1)c1ccccn1)c1cc(-c2ccccc2)n(-c2ccccc2)n1,HeLa,cell growth or viability,,,,CC50,> 50 µM
Cc1cc(=O)c2c(O)c3c(O[C@@H]4O[C@H](CO)[C@@H](O)[C@H](O)[C@H]4O)cc(O)cc3cc2o1,HepaRG co-cultured with HK-2,MTT,,"133.33 µM, 48 h",reference: untreated control,cell viability,53.8 ± 6.06%

# Repeated from above:
SMILES,cell line,test,test system,setting,how to read,measurement,value
O=C1NC2(CC2)COc2ncc(F)cc2[C@H]2COCCN2c2ccn3ncc1c3n2,CHL,chromosomal aberration test,,"10 µg/mL, 24 h, without S9",,polyploid cells,0%
